Results pooled from the literature.
Every numbered part comes from another study and shows a few of its results, in no order.

Study 1
Target: Histone acetyltransferase KAT6A, winged helix 1, GST fusion (KAT6A, Homo sapiens, UniProt Q92794, residues 1-85)
Technique: protein binding microarray
Molecule type: double-stranded DNA, one strand shown
Sample: in vitro
Concentration: not given
Notes: 8-mer, flanks averaged, mean of 2 arrays, mostly near background
Reference: not given
Direction: higher = stronger binding
Measurement: E-score
Residues (chain): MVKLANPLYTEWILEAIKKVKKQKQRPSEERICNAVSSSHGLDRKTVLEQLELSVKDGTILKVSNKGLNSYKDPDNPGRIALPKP
CAGACCAC: -0.182
CTCATGGA: -0.23
CTACCAAC: -0.125
GCACACCC: -0.0276
AAATATGG: -0.0797
AGGGAGCA: -0.202
AGAAGTCC: -0.203
CTGCTTAA: -0.0289
CTTCCATA: -0.196
AGGTTGCA: -0.239
CAACTTAG: -0.154
AAAGTTTC: -0.133
GTCCTAGA: -0.0169
AAGCCTTC: -0.145
GTGCAACA: -0.103
GCTCCCTA: 0.0582
CGCCCTAA: 0.148
ACTTTCTA: -0.11
ACAAAATG: -0.133
TCACATGA: -0.175
AACAGTCC: -0.147
CCGATAGC: 0.223
ACCCCATA: -0.0879
CCGTCTTA: 0.147
AGTCTAAG: -0.0692

Study 2
Target: RING finger protein unkempt homolog, zinc fingers 1-6, GST-SBP tag (UNK, Homo sapiens, UniProt Q9C0B0, residues 30-357)
Technique: RNA Bind-n-Seq
Molecule type: RNA
Sample: in vitro
Concentration: not given
Notes: RNA with constant flanks, human and mouse sites, ends assumed
Reference: input RNA pool
Direction: higher = stronger binding
Measurement: bound/input enrichment
Shared flanks, not repeated: GGGAGUUCUACAGUCCGACGAUC … CAACAGAGGAUUGAGCAUCA
Residues (chain): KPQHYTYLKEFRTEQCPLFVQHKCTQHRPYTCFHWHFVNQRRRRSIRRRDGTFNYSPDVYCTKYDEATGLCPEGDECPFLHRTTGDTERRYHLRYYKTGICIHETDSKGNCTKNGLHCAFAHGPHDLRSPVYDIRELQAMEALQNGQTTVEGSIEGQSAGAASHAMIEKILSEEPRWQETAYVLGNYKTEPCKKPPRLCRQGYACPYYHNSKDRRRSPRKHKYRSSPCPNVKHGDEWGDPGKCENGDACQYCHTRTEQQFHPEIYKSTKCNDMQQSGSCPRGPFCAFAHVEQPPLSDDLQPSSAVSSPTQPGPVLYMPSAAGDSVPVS
UCAGGGCUUAAGACUACAUUGUUAGGCUUGGAUGAGCAAUCUGUUAAAGAAGUAAGAAGCACUCGGGCAGCGUGUACUGGACUUUACUGCAGCUGCUUUCAACCAGCUCCCUGUCACAGC: 0.261 ratio
UGGACUUUGAGUUUGCUGCAUGGCAGAUGCUCUACCUGUUUACCUCUCCUCAGAGGGUUUAUAGAAACUUUCACUACCGGAAGCAAACAAAGGACCAGUGGGCCAGAGAUGACCCUGCCU: 0.121 ratio
AAGAUCUCCAUGGACGUGUUCGUGAGGAGGUUCCAGCCGGAACGCUACAAACUUUGGAAAGCUGGGAAGGACAGCAUGGUUAUUGACCACACUCUGCCCACACCGGAAGCAGCCGAGUUC: 0.0864 ratio
GGGUGGGUUUGGGGCCGGGGGCGGGUCUGGGGGCGGACCCGGAGGCGGGGCUGUCUCUGCGGCAGGGCCCAGUUCGGCUCCCCCAGUCUCUCUCUGUCUCUCCUCCUCCCUCCUCCUGCU: 1.32 ratio
UCCCGGCGCCAUGUGAGGGGGCUCGGGGGCCGCGGGGGGCCGGGCGCUCCCCGCCGGAGAUGAGGAAACUGAGGCUCAGAGAGGUCACAUGGCUUGCUCGAGGCCCCCCAGCCAGUGUGA: 0.0631 ratio
GAGUUGCUAAAUUUUGCUUGAAGCACUUUAAUAUAACUUGAAUAUUAUCUAUUAUAAAAGUAACUACAAAUAAGUGUUGUGAAUAGAUUUUAUUAUAAAUCAGAGAACUGUUUUCUCCCU: 0.295 ratio
AGGCAUUUACUGUACAUUUCUCCCGAGAAAAGAGUGAGAUCGUGUCAUCUCAUGCUCCCCAUCCGCAGGUCACUUCCUGUAGAAAUAUGGACUAACUUACACCUCGUUUUACUGCAAUCA: 0.28 ratio
AAUGAGAUGAUGCAAAAUGAAGAAAAAUAUGAAAAAAUCUUAAAGGCAUUGAACAGUCGUCGUAUUAUUCCCAGACCAUUUGUAGCUCAAAAACUUGCAUCAAGUGAUGACUUUAUAUCU: 0.238 ratio

Study 3
Target: RNA binding protein fox-1 homolog 2, RRM domain, GST-SBP tag (RBFOX2, Homo sapiens, UniProt O43251-10, residues 100-194)
Technique: RNA Bind-n-Seq
Molecule type: RNA
Sample: in vitro
Concentration: 365 nM
Notes: natural RNA segment, single round, ends assumed
Reference: no-protein control
Direction: higher = stronger binding
Measurement: RBNS enrichment (R)
Shared flanks, not repeated: GGGAGUUCUACAGUCCGACGAUC … UGGAAUUCUCGGGUGCCAA
Target sequence (chain): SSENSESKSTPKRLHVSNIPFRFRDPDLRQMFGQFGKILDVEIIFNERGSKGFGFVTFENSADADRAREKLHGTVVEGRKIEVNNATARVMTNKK
GUAACUUUAUUUAUUUAAAAAAAAGAAACACAAUUAGUUACUGUUAAACUGAUAAAGGGUGUUUAUUUUUACUUUUAGAAUUGGUCCUAUGAAGAAGUAGAAAGUGAGUC: 0.926
AGACUGGUGACAGAGUUCCUGUCUAACUGUCCUUUAUUUGAAAUAAACUGAGCUGAGUUGGUCUCUAUCUUCCUUGUAGCUGCCUUGUUCACUGUGUUUUGACUCUCACU: 0.318
GCUUCAAUCUCUGAACACUGUAGACCCAUUAGAAGACUGUUCCGAUUGUUACAAAUUGUAGUGCCUGAAAACACUCUUAAGCUGAUUGUCUUAACAAAAUGAAAGUUCUC: 0.67
AAAUAGGGAUUAAAUGUCUAGGCUUCCAUUUAAAAUUAUAUGAAUGGUUUGGGAUCUUUUUGCACUGAGCAAUUUUAUUUCAGGCUUCCAGCUGUCCCUGUGAGUUAUCC: 1.03
GAGCAUGGUGAGGAGUAGCCAGGGUGAAUUUCACAACAUUUGUACUAGAUUUAGAUGCUCAAGAAUAAAUGUACUGAGAAGAGUUAAUAAUUGUUUAUUCCCAAAUUGAA: 5.83
UGUGCCUGCCACCUGCUGCCCCUGCAGAGUCAUGUGUGUUUGUGGUGGGCAUUUUAAAUAAUUAUUUAAAAGACAGGAAGUAAGCGGUACCGAGCAAUGAAACUGAAGGU: 0.379
AGCACGGGGGCCCGGAGGGAGAGCCCCUUCAGGGUUCAGAGUGAAGUACUACCUUGCCAGGGACUCAGUCAGGGGACUUUGGGAGAAAGACUUGAUAGCCAGGCUGACUG: 0.656
UUUGUACAUUGCUUUCCCUGCCUUCUUUUUUCACGUCUGUUUUGGUGUUUGAUCCCUGCCCAGUGUUGUCGCACAGGGGAAGGGCAGAUACCAAGACCUGUCUGUUGGAU: 0.392

Study 4
Target: Sal-like protein 4, full length isoform A (SALL4, Homo sapiens, UniProt Q9UJQ4, residues 1-1053)
UniProt Q9UJQ4, sequence (whole entry, looked up): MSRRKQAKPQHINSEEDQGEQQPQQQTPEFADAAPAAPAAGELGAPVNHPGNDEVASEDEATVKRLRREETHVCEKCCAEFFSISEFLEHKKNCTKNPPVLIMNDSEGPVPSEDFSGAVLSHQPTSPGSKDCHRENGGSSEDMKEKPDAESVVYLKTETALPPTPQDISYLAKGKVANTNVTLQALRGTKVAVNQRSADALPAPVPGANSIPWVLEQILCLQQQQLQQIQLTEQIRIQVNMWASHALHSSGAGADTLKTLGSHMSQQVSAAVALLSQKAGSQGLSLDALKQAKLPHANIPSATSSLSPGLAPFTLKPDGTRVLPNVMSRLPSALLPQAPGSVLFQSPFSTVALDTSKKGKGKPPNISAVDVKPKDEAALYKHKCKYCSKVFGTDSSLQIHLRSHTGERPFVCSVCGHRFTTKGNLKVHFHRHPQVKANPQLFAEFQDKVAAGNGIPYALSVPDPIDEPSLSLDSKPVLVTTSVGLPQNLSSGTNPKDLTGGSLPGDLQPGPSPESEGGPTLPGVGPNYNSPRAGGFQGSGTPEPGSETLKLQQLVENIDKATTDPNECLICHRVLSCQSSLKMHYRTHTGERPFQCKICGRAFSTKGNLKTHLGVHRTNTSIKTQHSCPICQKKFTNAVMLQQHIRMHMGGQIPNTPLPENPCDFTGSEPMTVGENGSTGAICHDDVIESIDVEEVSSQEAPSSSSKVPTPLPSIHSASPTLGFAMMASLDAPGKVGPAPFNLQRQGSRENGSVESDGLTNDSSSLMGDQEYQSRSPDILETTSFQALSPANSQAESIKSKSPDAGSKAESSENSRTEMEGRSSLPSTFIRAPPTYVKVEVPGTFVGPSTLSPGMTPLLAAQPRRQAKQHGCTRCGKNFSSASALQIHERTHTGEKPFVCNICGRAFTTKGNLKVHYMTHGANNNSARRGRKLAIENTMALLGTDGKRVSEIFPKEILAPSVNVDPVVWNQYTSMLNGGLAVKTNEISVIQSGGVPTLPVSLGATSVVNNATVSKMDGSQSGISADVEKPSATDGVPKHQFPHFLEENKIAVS
Technique: universal PBM
Molecule type: double-stranded DNA, one strand shown
Sample: in vitro
Concentration: 600 nM
Notes: 8-mer, flanks averaged, mean of replicates
Direction: higher = stronger binding
Measurement: E-score
GATGCCCC: -0.403
GGGCACAC: -0.294
ATGTCAGA: 0.162
CCTACGGC: -0.269
AGGGACCA: -0.252
ACAGAATG: 0.0751
TACGGATA: 0.207
CAACTGCC: -0.057
CTTAGGCA: -0.129
CAAATCGG: -0.00891
ATAGTGCA: 0.191
TAACTTGA: 0.209
AGCAGTCG: -0.17
GAGCCGTA: -0.0357
GCGTTGCC: -0.27
GGACTCCC: -0.318
CTGGATCC: -0.165
GGAAACCA: -0.264
GATCCTCC: -0.221
CTGTGACA: -0.0889

A few entries again (study 4):
ACAGAATG: 0.0751
GGAAACCA: -0.264
TACGGATA: 0.207
AGCAGTCG: -0.17
CTTAGGCA: -0.129
CTGTGACA: -0.0889
CTGGATCC: -0.165
GATCCTCC: -0.221
GGGCACAC: -0.294
ATAGTGCA: 0.191
